Assay results gathered from unrelated publications.
Lines come from different studies, so protocols differ. Values joined by “and” are separate records of one study, mostly repeats; a detail may differ. Numbers after ± are the reported error.

| Compound | tested on | test | system | setting | scale | endpoint | value |
| --- | --- | --- | --- | --- | --- | --- | --- |
| N#C[C@@H]1CC(F)(F)CN1C(=O)CNC(=O)c1ccnc2ccc(OCCCN3CCN(C(=O)CN4CCN(CC(N)=O)CCN(CC(N)=O)CCN(CC(N)=O)CC4)CC3)cc12 [lead-203 labelled] |  |  | male NRG mice HEK293T-hFAP tumour, tumour | intravenous, 100 pmol, 1 h, unblocked |  | tissue uptake | 8.62 ± 1.32 %ID/g |
| CC(C)C[C@H](NC(=O)[C@@H](CCCCNC(=O)[C@@H](Cc1ccccc1)NC(=O)CCCCCNC(=O)CN1CCN(CC(=O)O)CCN(CC(=O)O)CCN(CC(=O)O)CC1)NC(=O)[C@H](Cc1ccc(O)cc1)NC(=O)[C@H](CO)NC(=O)[C@H](Cc1c[nH]c2ccccc12)NC(=O)[C@H](Cc1c[nH]cn1)NC(=O)[C@@H]1CCC(=O)N1)C(=O)N[C@@H](CCCNC(=N)N)C(=O)N1CCC[C@H]1C(=O)NCC(N)=O [indium-111 labelled] |  |  | female athymic nude mice, blood | intravenous, 0.037 MBq, 1 h |  | tissue uptake | 0.32 ± 0.21 %ID/g |
| Cc1cc(-c2ccc(NC(=O)CC[C@H](NC(=O)CN3CCN(CC(=O)O)CCN(CC(=O)O)CCN(CC(=O)O)CC3)C(=O)NCC(=O)N[C@@H](CC(N)=O)C(=O)N[C@H](C(=O)N[C@H](C(=O)N[C@@H](CCCNC(=N)N)C(=O)N[C@@H](CCC(N)=O)C(=O)O)C(C)C)C(C)C)c(C)c2)ccc1/N=N/c1ccc2c(S(=O)(=O)O)cc(S(=O)(=O)O)c(N)c2c1O [copper-64 labelled] |  |  | nude mice, heart | intravenous, 48 h |  | tissue uptake | 3.8 ± 0.4 %ID/g |
| N#C[C@@H]1CC(F)(F)CN1C(=O)CNC(=O)c1ccnc2ccc(OCCCN3CCN(C(=S)Nc4ccc(C[C@H]5CN(CC(N)=O)CCN(CC(N)=O)CCN(CC(N)=O)CCN5CC(N)=O)cc4)CC3)cc12 [lead-203 labelled] |  |  | male NRG mice, HEK293T-hFAP tumour, liver | intravenous, 100 pmol, 1 h, ex vivo, unblocked |  | tissue uptake | 1.73 ± 0.41 %IA/g |
| CC(C)C[C@H](NC(=O)[C@H](Cc1ccc(O)cc1)NC(=O)[C@@H](CCCNC(=N)N)NC(=O)[C@@H](CO)NC(=O)[C@H](Cc1ccccc1)NC(=O)[C@H](CC1CCCCC1)NC(=O)[C@H](CC(=O)O)NC(=O)CN1CCN(CC(=O)O)CCN(CC(=O)O)CCN(CC(=O)O)CC1)C(=O)N[C@@H](Cc1c[nH]c2ccccc12)C(=O)N[C@@H](CO)C(=O)O [copper-64 labelled] |  |  | human, brain | concentration not given, 3 h |  | activity concentration | 90.7 Bq/mL and 132 Bq/mL and 151 Bq/mL and 108 Bq/mL and 69.4 Bq/mL and 72.8 Bq/mL |
| CCCC[C@@H]1NC(=O)[C@@H](CC(C)C)NC(=O)[C@H](CCCCNC(=O)CN2CCN(CC(=O)O)CCN(CC(=O)O)CC2)NC(=O)NNC(=O)[C@H](Cc2c[nH]cn2)NC(=O)[C@@H](Cc2c[nH]c3ccccc23)NC1=O [copper-64 labelled] |  |  | Balb/c mice, heart | intravenous, dose not given |  | tissue uptake | 0.11 ± 0.03 %ID/g |
| COc1ccccc1/C=C/CN1CCCC(CCC(=O)NCc2ccccc2F)C1 (centres unmarked) | Trypanosoma cruzi | reporter mRNA translation, inhibitor, refers to: Renilla luciferase mRNA | cell-free extract | concentration not given, test 2 | relative to: positive over negative control | translation activity | 82.3% and 118% |
| CC(C)C[C@@H](NC(=O)[C@@H](CC(C)C)NC(=O)[C@@H](CC(=O)O)NC(=O)[C@@H](CC(C)C)NC(=O)[C@@H](CC(C)C)NC(=O)[C@@H](CC(C)C)NC(=O)[C@H](NC(=O)[C@@H](CC(=O)O)NC(=O)[C@H](NC(=O)[C@H]1CCCN1C(=O)[C@@H](Cc1ccccc1)NC(=O)[C@@H](CC(C)C)NC(=O)[C@@H](CC(C)C)NC(=O)[C@@H](CC(=O)O)NC(=O)[C@@H](CC(C)C)NC(=O)[C@@H](Cc1ccc(O)cc1)NC(=O)[C@@H](C)NC(=O)[C@@H](CCCNC(=N)N)NC(=O)[C@@H](Cc1c[nH]c2ccccc12)NC(=O)[C@H]1CCCN1C(=O)[C@@H](CC(N)=O)NC(=O)[C@@H](CCC(N)=O)NC(=O)[C@@H](CC(=O)O)NC(=O)[C@@H](CC(=O)O)NC(=O)[C@@H](CSC1CC(=O)N(CCNC(=O)CN2CCN(CC(=O)O)CCN(CC(=O)O)CC2)C1=O)NC(=O)[C@@H](C)N)[C@H](C)O)[C@H](C)O)C(=O)N[C@H](Cc1c[nH]c2ccccc12)C(=O)O (some centres unmarked) [fluorine-18 labelled] |  |  | female C57BL/6 mice, B16-F10 melanoma, blood | intravenous, 6 h |  | tissue uptake | 15.3 %ID/g |
| CCCC[C@H](NC(=O)CCCCCCCNC(=O)CN1CCN(CC(=O)O)CCN(CC(=O)O)CC1)C(=O)N[C@H]1CC(=O)NCCCC[C@@H](C(N)=O)NC(=O)[C@H](Cc2c[nH]c3ccccc23)NC(=O)[C@H](CCCNC(=N)N)NC(=O)[C@@H](Cc2ccccc2)NC(=O)[C@H](Cc2c[nH]cn2)NC1=O [technetium-99m labelled] |  |  | C57 mouse, pancreas | intravenous, 0.037 MBq, 4 h |  | tissue uptake | 0.01 ± 0.04 %ID/g |
| CC(NS(=O)(=O)c1ccc(CCC(=O)N2CCN(C)CC2)cc1)c1ccccc1 (centres unmarked) | Trypanosoma cruzi | reporter mRNA translation, inhibitor, refers to: Renilla luciferase mRNA | cell-free extract | concentration not given, test 2 | relative to: positive over negative control | translation activity | 123% and 149% |
| CCCC[C@@H]1NC(=O)[C@@H](CC(C)C)NC(=O)[C@H](CCCCNC(=O)CN2CCN(CC(=O)O)CCN(CC(=O)O)CC2)NC(=O)[C@@H](CO)NC(=O)[C@H](Cc2c[nH]cn2)NC(=O)[C@@H](Cc2c[nH]c3ccccc23)NC1=O [copper-64 labelled] |  |  | Balb/c mice, kidneys | intravenous, dose not given |  | tissue uptake | 0.83 ± 0.09 %ID/g |

For quick reference, copied from above:
| Compound | tested on | test | system | setting | scale | endpoint | value |
| --- | --- | --- | --- | --- | --- | --- | --- |
| CCCC[C@@H]1NC(=O)[C@@H](CC(C)C)NC(=O)[C@H](CCCCNC(=O)CN2CCN(CC(=O)O)CCN(CC(=O)O)CC2)NC(=O)NNC(=O)[C@H](Cc2c[nH]cn2)NC(=O)[C@@H](Cc2c[nH]c3ccccc23)NC1=O [copper-64 labelled] |  |  | Balb/c mice, heart | intravenous, dose not given |  | tissue uptake | 0.11 ± 0.03 %ID/g |
| COc1ccccc1/C=C/CN1CCCC(CCC(=O)NCc2ccccc2F)C1 (centres unmarked) | Trypanosoma cruzi | reporter mRNA translation, inhibitor, refers to: Renilla luciferase mRNA | cell-free extract | concentration not given, test 2 | relative to: positive over negative control | translation activity | 82.3% and 118% |
